Published values gathered from unrelated publications.
Each line is one published result; not all experiments were run side by side. ± marks the error that the study gave.
Tripartite terminase subunit 3 C-terminal nuclease domain: Tripartite terminase subunit 3, C-terminal nuclease domain (Human betaherpesvirus 5, UniProt P16732)
Sequence of UniProt P16732 (whole entry, looked up): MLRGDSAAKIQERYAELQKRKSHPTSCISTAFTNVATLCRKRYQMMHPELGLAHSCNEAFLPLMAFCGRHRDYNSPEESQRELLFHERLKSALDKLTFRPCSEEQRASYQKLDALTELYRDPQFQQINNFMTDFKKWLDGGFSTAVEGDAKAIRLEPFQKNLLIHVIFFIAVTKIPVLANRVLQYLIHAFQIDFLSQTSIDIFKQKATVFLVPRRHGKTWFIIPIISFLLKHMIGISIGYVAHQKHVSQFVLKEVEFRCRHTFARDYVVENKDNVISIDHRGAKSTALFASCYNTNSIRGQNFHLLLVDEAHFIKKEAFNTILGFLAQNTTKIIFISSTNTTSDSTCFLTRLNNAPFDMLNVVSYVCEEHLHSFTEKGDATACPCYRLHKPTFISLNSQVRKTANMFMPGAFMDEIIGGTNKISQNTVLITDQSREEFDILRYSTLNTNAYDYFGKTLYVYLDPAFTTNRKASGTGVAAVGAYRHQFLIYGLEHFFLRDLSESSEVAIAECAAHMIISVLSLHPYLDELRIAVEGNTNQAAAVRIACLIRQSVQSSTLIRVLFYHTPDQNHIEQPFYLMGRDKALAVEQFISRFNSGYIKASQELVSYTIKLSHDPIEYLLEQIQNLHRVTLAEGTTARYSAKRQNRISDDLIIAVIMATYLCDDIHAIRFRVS
Sequence of UniProt P62575 (whole entry, looked up): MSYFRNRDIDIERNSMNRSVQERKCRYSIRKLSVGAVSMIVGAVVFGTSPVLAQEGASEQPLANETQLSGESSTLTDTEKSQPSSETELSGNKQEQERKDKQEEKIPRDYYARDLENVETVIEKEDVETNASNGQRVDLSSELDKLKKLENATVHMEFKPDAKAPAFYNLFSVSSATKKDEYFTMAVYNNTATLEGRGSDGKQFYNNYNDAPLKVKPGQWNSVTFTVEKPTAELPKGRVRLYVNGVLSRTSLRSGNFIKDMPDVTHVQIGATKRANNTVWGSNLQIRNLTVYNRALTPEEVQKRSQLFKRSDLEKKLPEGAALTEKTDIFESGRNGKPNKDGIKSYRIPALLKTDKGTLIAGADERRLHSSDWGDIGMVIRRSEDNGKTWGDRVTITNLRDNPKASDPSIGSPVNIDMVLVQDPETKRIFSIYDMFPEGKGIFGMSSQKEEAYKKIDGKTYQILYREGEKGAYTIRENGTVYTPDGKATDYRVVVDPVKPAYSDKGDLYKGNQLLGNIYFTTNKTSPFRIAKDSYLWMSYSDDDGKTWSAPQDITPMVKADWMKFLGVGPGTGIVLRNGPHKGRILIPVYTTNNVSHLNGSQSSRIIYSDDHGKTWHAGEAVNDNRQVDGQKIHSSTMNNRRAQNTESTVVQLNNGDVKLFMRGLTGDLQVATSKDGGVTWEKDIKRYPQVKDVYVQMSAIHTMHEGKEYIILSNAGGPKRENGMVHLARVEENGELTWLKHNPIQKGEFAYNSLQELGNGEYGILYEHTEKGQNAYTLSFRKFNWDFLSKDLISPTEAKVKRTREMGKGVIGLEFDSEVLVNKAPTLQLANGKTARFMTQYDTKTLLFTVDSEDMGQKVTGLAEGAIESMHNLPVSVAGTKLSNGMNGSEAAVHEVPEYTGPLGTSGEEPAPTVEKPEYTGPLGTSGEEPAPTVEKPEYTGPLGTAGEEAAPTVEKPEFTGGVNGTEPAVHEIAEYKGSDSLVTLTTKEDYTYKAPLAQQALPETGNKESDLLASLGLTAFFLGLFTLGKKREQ

With `O=C(c1ccc(Cl)cc1)N1CCN2C(=O)N(OC(=O)N3CCOc4ccccc43)C(=O)C2C1` (stereo not drawn) the median ratio was 1.08 (PNPLA8 (Homo sapiens, UniProt Q9NP80); enzyme activity, inhibitor, MS-based ABPP; SW-620 in situ; 10 µM, 2 h, 37 °C; reference: compound over DMSO, lower = stronger inhibition).
For `O=c1[nH]c2cc(-c3ccc(Cl)cc3)ccc2c(=O)n1O`, the inhibition was 86% (Tripartite terminase subunit 3 C-terminal nuclease domain; endonuclease activity, ELISA; 20 µM, added: dsDNA).
`CN(C(=O)n1cnc(-c2ccc[n+]([O-])c2)c1)C1CCCCC1` has an inhibition of 12% (HRH4 (Homo sapiens, UniProt Q9H3N8); radioligand binding; 50 µM, added: [3H]histamine).
With `CC(=O)N[C@@H]1C(N)C[C@](OCC2O[C@@H](Oc3ccc([N+](=O)[O-])cc3)C(O)C(O)[C@H]2O)(C(=O)O)OC1[C@H](O)[C@H](O)CO` (stereo partly drawn) the inhibition was 4.4 ± 9.6% (Sialidase A (nanA, Streptococcus pneumoniae, UniProt P62575); 8 µM, pH 6).
`C[C@@H](O)[C@@H](CO)NC(=O)[C@@H](CCCNC(=N)N)NC(=O)[C@@H]1CCCN1C(=O)[C@@H]1CSSC[C@H](NC(=O)[C@H](Cc2ccccc2)NC(=O)CN2CCN(CC(=O)O)CCN(CC(=O)O)CCN(CC(=O)O)CC2)C(=O)N[C@@H](Cc2ccc(O)cc2)C(=O)N[C@@H](Cc2ccccc2)C(=O)N[C@@H](CCC(N)=O)C(=O)N[C@@H](CC(N)=O)C(=O)N1` [gallium-68 labelled] has a tissue uptake of 0.17 %ID/g (healthy Wistar rat, small intestine; intravenous, 8 MBq, 30 min, individual animals).
With `Cc1ncc(C)n2nc(/C=C/c3nc(N4CCCC4)cc(N4CCOCC4)n3)nc12` the inhibition was -9% (GABA-A receptor; GABA-A site (alpha1/beta2 interface), with gamma-2 subunit (Homo sapiens, UniProt P14867+P47870); radioligand binding; GABA-A receptor alpha1beta2gamma2 GABA site; 10 µM).
`COc1c(CCC[P+](c2ccccc2)(c2ccccc2)c2ccccc2)cc2c(c1OC)OCO2.[I-]` has a TGI of -5.13 log M (KM12; SRB).
`CN1CC[C@@H](c2c(O)cc(O)c3c(=O)cc(-c4ccc(C(F)(F)F)cc4Cl)oc23)[C@@H]1CO` — result for “patients with adverse event”: 0% (refers to: Leukopenia; relapsed AML; oral, 150 mg, grade 3-4, intermittent dosing).
With `Cc1cccc(COc2cccc(C(=O)Nc3ccc4c(c3)B(O)OC4)c2)c1` the inhibition was 18 ± 6% (Genome polyprotein, NS2B-NS3 protease (West Nile virus, UniProt P06935); enzyme activity, FRET; 50 µM, added: substrate 50 µM).
`Cc1csc2[nH]c(=O)n(O)c(=O)c12` gave an inhibition of 84% (Tripartite terminase subunit 3 C-terminal nuclease domain; endonuclease activity, ELISA; 20 µM, added: dsDNA).
For `COc1cc(Nc2ncc(F)c(Nc3ccc4c(n3)NC(=O)C(C)(C)O4)n2)cc(OC)c1OC`, the inhibition was 49% (GRK7 (Homo sapiens, UniProt Q8WTQ7); KINOMEscan; 10 µM).
With `CN1CCN(c2cc(-c3ccncc3)c(-c3ccc4ccccc4c3)nn2)CC1` the inhibition was 20.1% (GPR68 (Homo sapiens, UniProt Q15743); antagonist, FLIPR; 10 µM).
For `COc1cc(/C=C/C(=O)CC(=O)/C=C/c2ccc(O)c(OC)c2)ccc1O`, the inhibition was 6.7% (APP (Homo sapiens, UniProt P05067); Aβ42 self-aggregation, inhibitor, thioflavin T fluorescence; 0.1 µM).
`CC[C@H](C)[C@H](NC(=O)[C@H](Cc1ccccc1)NC(=O)[C@H](CCC(=O)O)NC(=O)[C@H](CCCNC(=N)N)NC(=O)[C@H](C)NC(=O)[C@H](C)NC(=O)[C@H](CCC(N)=O)NC(=O)[C@H](CCC(=O)O)NC(=O)[C@H](CCC(=O)O)NC(=O)[C@H](CC(C)C)NC(=O)[C@H](Cc1ccc(O)cc1)NC(=O)[C@H](CO)NC(=O)[C@H](CO)NC(=O)[C@@H](NC(=O)[C@H](CC(=O)O)NC(=O)[C@H](CO)NC(=O)[C@@H](NC(=O)[C@H](Cc1ccccc1)NC(=O)[C@@H](NC(=O)CNC(=O)[C@H](CCC(=O)O)NC(=O)[C@H](C)NC(=O)CCc1c[nH]cn1)[C@@H](C)O)[C@@H](C)O)C(C)C)C(=O)N[C@@H](C)C(=O)N[C@@H](Cc1c[nH]c2ccccc12)C(=O)N[C@@H](CC(C)C)C(=O)N[C@H](C(=O)N[C@@H](CCCNC(=N)N)C(=O)NCC(=O)N[C@@H](CCCNC(=N)N)C(=O)N[C@@H](CCCCNC(=O)COCCOCCNC(=O)COCCOCCNC(=O)CC[C@H](NC(=O)CCCCCCCCCCCCCCCCC(=O)O)C(=O)O)C(=O)NCC(=O)NCC(=O)N[C@@H](CO)C(=O)N[C@@H](CCCCNc1c(NCCCCCN(O)C(=O)CCC(=O)NCCCCCN(O)C(=O)CCC(=O)NCCCCCN(O)C(C)=O)c(=O)c1=O)C(=O)O)C(C)C` [zirconium-89 labelled] gave a tissue uptake of 0.12 %ID/g (ex vivo gamma counting; rat, knee; subcutaneous, 3 nmol/kg, 4 h, added: [89Zr]-labelled peptide).
For `O=C(Nc1cnccc1Cl)N1CCN(Cc2ccc3c(c2)OC(F)(F)O3)CC1`, the inhibition was 47% (Tmem97 (Rattus norvegicus, UniProt Q5U3Y7); radioligand binding, inhibitor; 10 µM, rat, added: [3H]ifenprodil).
`CO[C@H]1C[C@@H]2CC[C@@H](C)[C@@](O)(O2)C(=O)C(=O)N2CCCC[C@H]2C(=O)O[C@H]([C@H](C)C[C@@H]2CC[C@@H](OC(=O)NCCOCCOCCOCCOCCOCCOCCOCCOCCC(=O)N3CCc4cc(Cn5nc(-c6ccc7oc(N)nc7c6)c6c(N)ncnc65)ccc4C3)[C@H](OC)C2)C[C@@H](O)[C@H](C)/C=C(\C)[C@@H](O)[C@@H](OC)C(=O)[C@H](C)C[C@H](C)/C=C/C=C/C=C/1C` — result for “incidence of TEAE”: 40% (advanced solid tumour patients; intravenous, 1.6 mg/3 mg weekly, grade ≥3).
`COc1cccc(COc2cccc(C(=O)Nc3ccc4c(c3)B(O)OC4)c2)c1` has an inhibition of 16 ± 3% (Genome polyprotein, NS2B-NS3 protease (West Nile virus, UniProt P06935); enzyme activity, FRET; 50 µM, added: substrate 50 µM).
`COc1cc2c(Oc3ccc4[nH]c(C)cc4c3F)ccnc2cc1OCC1(N)CC1`: “grade 3 mouth ulcer” 0% (paediatric refractory sarcoma patients; 12 mg).
With `COc1ccc(N2C(=O)N(c3c(C)cccc3Cl)Cc3cnc(Nc4ccc(C5CCN(C)CC5)cc4OC)nc32)nc1` the inhibition was 3.61% (CDK9 (Homo sapiens, UniProt P50750); kinase activity, inhibitor; 0.5 µM, complex with -CYCLINT1).
With `O=C(Nc1cccc(C(=O)Nc2ccc3c(c2)B(O)OC3)c1)c1ccccc1` the inhibition was 35 ± 3% (Genome polyprotein, NS2B-NS3 protease (dengue virus type 2, UniProt P29990); enzyme activity, FRET; dengue virus serotype 2; 50 µM, added: substrate 50 µM).
`CC[C@H](C)[C@@H]1NC(=O)[C@@H]2CCCN2C(=O)[C@H](CC(C)C)NC(=O)[C@H](CC(C)C)NC(=O)CNC(=O)[C@@H](NC(=O)[C@@H](NC(=O)[C@H](CC(=O)O)NC(=O)CNC(=O)[C@@H](NC(=O)[C@H](C)NC(=O)CNC(=O)[C@H](CCCCN)NC(=O)[C@H](CC(C)C)NC(=O)[C@H](CC(C)C)NC(=O)[C@H](CCCCN)NC(=O)CNC(=O)[C@@H](NC(=O)[C@@H](N)CC(C)C)C(C)C)C(C)C)C(C)C)CSSC[C@@H](C(=O)O)NC1=O` — result for “log2 fold change”: -2.96 (RNA-seq, refers to: Pilra mRNA; mouse traumatic brain injury, frontal cortex and hippocampus; dose not given; reference: TBI plus compound vs TBI).
For `C[C@@H]1CC[C@@]2(OC1)O[C@H]1[C@@H](O)[C@H]3[C@@H]4CC[C@H]5C[C@@H](O[C@@H]6O[C@H](CO)[C@H](O[C@@H]7O[C@H](CO)[C@@H](O)[C@H](O[C@@H]8OC[C@@H](O)[C@H](O)[C@H]8O)[C@H]7O[C@@H]7O[C@H](CO)[C@H](O)[C@H](O[C@@H]8O[C@H](CO)[C@@H](O)[C@H](O)[C@H]8O)[C@H]7O)[C@H](O)[C@H]6O)[C@H](O)C[C@]5(C)[C@H]4CC[C@]3(C)[C@H]1[C@@H]2C`, the inhibition was 70.3% (Arylacetamide deacetylase (Homo sapiens, UniProt P22760); probe substrate; concentration not given).
With `C[C@H]1CN(c2n[nH]c3nc(N[C@H]4CC[C@H](NS(=O)(=O)CCC(F)(F)F)CC4)ncc23)CCO1` the remaining binding was 0.94 (NLK (Homo sapiens, UniProt Q9UBE8); Kinobeads competition; HEK293, K562, placenta lysate; 0.032 µM, unit not given; reference: vehicle).
For `Nc1ncnc2c1ncn2[C@@H]1O[C@H](C[C@@H](N)CC[C@H](N)C(=O)O)[C@@H](O)[C@H]1O`, the inhibition was 79.8% (Genome polyprotein, NS5 methyltransferase domain (Zika virus, UniProt Q32ZE1); NS5 enzyme activity, inhibitor; 12.5 µM).
For `O=C(Nc1ccc2c(c1)B(O)OC2)c1cccc(OCc2ccc(Cl)cc2)c1`, the inhibition was 24 ± 4% (Genome polyprotein, NS2B-NS3 protease (West Nile virus, UniProt P06935); enzyme activity, FRET; 50 µM, added: substrate 50 µM).
`O=C(Nc1cccnn1)N1CCC(=Cc2cccc(Oc3ccc(C(F)(F)F)cn3)c2)CC1` has an inhibition of 35% (ADORA1 (Homo sapiens, UniProt P30542); binding; 50 µM, added: [3H]DPCPX).
`Cn1cc(-c2cc(F)cc(N3CCn4c(cc5c4CCCC5)C3=O)c2CO)cc(Nc2ccc(N3CCN(C4COC4)CC3)cn2)c1=O` has an inhibition of 19% (MAPK14 (Homo sapiens, UniProt Q16539); kinase activity, inhibitor, SelectScreen; 0.1 µM, added: ATP).
